Results collected from several papers.
Lines come from different studies, so protocols differ. ± gives the spread as reported.
SLCO1B1: Solute carrier organic anion transporter family member 1B1 (SLCO1B1, Homo sapiens, UniProt Q9Y6L6)
Sequence of UniProt Q9Y6L6 (whole entry, looked up): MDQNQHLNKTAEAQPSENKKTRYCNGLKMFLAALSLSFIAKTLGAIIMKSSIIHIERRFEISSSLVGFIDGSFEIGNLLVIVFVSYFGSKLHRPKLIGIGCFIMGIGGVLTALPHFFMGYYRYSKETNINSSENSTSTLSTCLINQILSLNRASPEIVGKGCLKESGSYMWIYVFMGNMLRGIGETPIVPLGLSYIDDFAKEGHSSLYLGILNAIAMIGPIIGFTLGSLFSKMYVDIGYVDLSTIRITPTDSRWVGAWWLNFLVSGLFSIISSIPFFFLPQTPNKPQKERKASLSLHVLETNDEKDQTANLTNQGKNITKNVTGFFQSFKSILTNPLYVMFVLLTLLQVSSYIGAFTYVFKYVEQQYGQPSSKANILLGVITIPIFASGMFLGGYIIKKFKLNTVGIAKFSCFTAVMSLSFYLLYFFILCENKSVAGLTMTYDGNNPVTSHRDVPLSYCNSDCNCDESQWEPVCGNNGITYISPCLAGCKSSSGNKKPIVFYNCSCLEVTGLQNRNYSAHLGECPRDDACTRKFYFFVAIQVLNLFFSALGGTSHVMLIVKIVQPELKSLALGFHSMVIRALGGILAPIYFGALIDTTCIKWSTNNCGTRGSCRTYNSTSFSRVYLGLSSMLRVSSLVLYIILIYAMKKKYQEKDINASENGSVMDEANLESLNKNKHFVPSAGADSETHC
IDE: Insulin-degrading enzyme (IDE, Homo sapiens, UniProt P14735)
CYP2E1: Cytochrome P450 2E1 (CYP2E1, Homo sapiens, UniProt P05181)
Sequence of UniProt P05181 (whole entry, looked up): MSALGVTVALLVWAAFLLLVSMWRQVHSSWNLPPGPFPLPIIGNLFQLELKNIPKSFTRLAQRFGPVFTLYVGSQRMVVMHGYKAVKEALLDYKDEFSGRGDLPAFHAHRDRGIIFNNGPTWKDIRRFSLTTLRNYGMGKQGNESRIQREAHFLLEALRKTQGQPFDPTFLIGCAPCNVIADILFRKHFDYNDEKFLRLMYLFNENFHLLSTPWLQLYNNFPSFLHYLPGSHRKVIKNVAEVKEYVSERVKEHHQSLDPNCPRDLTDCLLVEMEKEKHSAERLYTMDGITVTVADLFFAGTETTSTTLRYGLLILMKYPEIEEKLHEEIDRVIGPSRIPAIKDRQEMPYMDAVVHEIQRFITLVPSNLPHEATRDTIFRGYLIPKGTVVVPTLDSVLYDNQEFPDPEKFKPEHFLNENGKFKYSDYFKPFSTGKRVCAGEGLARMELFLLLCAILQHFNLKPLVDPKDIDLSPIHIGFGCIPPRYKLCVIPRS
Broad substrate specificity ATP-binding cassette transporter ABCG2: Broad substrate specificity ATP-binding cassette transporter ABCG2 (Mus musculus, UniProt Q7TMS5)
Sequence of UniProt Q7TMS5 (whole entry, looked up): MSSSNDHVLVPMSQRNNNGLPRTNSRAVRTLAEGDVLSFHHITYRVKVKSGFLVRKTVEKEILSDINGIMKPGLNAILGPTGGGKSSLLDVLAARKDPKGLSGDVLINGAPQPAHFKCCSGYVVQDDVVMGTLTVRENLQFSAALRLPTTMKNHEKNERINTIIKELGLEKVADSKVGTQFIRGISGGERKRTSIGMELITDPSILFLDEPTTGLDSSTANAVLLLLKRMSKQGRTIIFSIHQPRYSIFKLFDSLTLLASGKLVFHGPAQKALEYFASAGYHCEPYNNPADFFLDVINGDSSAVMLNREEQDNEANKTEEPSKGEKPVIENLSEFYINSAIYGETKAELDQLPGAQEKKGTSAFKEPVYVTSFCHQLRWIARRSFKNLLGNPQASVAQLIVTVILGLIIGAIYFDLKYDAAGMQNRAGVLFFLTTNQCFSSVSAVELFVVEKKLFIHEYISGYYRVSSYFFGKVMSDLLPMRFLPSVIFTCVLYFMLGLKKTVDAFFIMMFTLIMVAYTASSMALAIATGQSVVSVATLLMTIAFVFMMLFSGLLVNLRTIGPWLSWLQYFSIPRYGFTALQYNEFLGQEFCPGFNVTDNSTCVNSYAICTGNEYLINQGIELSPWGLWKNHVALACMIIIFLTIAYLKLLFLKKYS
ABCB1: ATP-dependent translocase ABCB1 (ABCB1, Homo sapiens, UniProt P08183)
Sequence of UniProt P54855 (whole entry, looked up): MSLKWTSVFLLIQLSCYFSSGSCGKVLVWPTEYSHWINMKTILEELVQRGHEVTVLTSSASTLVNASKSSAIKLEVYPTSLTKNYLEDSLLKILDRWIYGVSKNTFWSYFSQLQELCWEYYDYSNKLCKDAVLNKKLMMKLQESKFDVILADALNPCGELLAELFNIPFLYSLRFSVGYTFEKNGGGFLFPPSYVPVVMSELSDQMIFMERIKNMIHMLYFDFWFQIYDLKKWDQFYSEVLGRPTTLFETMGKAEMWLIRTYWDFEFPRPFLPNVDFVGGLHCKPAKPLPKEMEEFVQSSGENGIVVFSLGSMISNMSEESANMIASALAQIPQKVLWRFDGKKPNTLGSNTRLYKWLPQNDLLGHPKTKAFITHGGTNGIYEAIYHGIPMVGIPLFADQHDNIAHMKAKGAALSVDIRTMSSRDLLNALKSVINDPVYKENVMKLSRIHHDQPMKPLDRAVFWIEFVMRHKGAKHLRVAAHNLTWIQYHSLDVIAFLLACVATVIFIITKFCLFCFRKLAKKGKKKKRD
Sequence of UniProt P08684 (whole entry, looked up): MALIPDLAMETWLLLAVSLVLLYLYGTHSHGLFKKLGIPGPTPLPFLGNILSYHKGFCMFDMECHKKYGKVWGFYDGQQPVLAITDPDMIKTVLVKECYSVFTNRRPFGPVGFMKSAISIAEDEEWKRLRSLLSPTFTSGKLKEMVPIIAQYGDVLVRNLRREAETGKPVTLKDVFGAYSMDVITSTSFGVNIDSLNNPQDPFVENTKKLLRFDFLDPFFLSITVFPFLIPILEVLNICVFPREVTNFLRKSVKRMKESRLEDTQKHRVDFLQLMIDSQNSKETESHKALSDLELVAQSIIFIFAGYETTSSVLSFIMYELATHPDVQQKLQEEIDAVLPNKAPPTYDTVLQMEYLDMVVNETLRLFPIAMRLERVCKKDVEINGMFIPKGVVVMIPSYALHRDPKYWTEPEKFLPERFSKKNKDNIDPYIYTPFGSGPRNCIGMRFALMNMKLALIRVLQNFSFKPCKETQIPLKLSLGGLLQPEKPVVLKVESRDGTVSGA
Sequence of UniProt Q96JM7 (whole entry, looked up): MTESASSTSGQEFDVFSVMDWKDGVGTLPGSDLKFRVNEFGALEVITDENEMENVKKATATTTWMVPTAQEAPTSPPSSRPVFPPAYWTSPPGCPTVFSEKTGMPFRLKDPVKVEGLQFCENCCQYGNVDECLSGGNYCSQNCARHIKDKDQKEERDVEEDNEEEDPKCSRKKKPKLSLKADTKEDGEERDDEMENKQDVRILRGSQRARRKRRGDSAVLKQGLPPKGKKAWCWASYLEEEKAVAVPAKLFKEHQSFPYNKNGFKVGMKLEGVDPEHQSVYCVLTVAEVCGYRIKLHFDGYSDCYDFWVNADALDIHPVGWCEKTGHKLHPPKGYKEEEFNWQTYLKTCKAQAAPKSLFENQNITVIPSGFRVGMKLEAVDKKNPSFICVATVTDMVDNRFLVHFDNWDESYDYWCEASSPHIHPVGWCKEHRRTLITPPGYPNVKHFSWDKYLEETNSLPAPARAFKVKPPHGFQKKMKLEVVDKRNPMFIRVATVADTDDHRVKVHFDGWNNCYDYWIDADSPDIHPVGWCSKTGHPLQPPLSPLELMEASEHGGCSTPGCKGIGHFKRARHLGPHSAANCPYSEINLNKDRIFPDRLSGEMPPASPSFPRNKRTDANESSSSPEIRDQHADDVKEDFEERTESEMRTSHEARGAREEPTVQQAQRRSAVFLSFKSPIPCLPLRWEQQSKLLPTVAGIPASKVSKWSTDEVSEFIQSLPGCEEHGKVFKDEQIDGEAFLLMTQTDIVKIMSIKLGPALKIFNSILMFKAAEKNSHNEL
Sequence of UniProt P49888 (whole entry, looked up): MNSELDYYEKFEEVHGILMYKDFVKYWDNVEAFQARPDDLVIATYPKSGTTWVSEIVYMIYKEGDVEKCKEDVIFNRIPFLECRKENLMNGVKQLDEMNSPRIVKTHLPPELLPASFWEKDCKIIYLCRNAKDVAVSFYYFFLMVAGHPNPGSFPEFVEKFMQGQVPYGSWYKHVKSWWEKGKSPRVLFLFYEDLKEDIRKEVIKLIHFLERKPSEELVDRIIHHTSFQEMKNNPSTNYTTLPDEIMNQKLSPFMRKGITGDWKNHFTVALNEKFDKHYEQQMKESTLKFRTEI

`O=C(O)[C@H]1O[C@@H](Oc2ccc([C@@H]3[C@@H](CC[C@H](O)c4ccc(F)cc4)C(=O)N3c3ccc(F)cc3)cc2)[C@H](O)[C@@H](O)[C@@H]1O` — result for “lowest inhibitory concentration”: ≥ 0.1 µM (SLCO1B1; uptake, inhibitor; MDCKII-SLCO1B1; together with: 1 µM coproporphyrin I).
`COc1cccc2c1C(=O)c1c(O)c3c(c(O)c1C2=O)C[C@@](O)(C(=O)CO)C[C@@H]3O[C@H]1C[C@H](NC(=O)[C@@H]2CCCN2C(=O)CN)[C@H](O)[C@H](C)O1` gave a Cmax of 110 ± 33 nM (healthy mouse, plasma; intravenous, 23.6 mg/kg PhAc-ALGP-Dox).
`Cc1cccc(-c2ccc([C@@H]3[C@@H](CO)N4CCCCN(S(=O)(=O)c5cccs5)C[C@@H]34)cc2)c1` gave an EC50 of 0.8 µM (IDE; enzyme activity, inhibitor, fluorogenic kinetic; together with: Mca-RPPGFSAFK(Dnp)-OH substrate).
`O=c1c(-c2ccc(O)cc2)coc2cc(O)cc(O)c12` — result for antagonist activity: “inactive” (Androgen receptor (AR, Homo sapiens, UniProt P10275, Q868H); luciferase reporter gene, antagonist; concentration not given, heat-inactivated rat liver microsomes).
With `CCC(=O)NCC[C@@H]1CCc2cc(O)c3c(c21)CCO3` the specific activity was 0.56 ± 0.02 nmol/min/mg (SULT1E1 (Homo sapiens, UniProt P49888); substrate, sulfation, purified enzyme; 10 µM, 10 min, pH 7.0, 37 °C).
With `CCc1oc2ccccc2c1C(=O)c1cc(Br)c(OC)c(Br)c1` the Ki was 6.3 µM (CYP2E1; p-nitrophenol hydroxylation, inhibitor; with additive 100 µM).
For `CC(C)=CCc1c(O)cc2c(c1O)C(=O)C[C@@H](c1ccc(O)cc1)O2`, the inhibition was 35.7 ± 1.9% (human CYP2B6; 10 µM, pH 7.4).
For `CC(C)C[C@H](NC(=O)CNC(=O)c1cc(Cl)ccc1Cl)B(O)O`, “CYP3A4 intrinsic clearance” read 0.0576 µL/min/pmol (CYP3A4).
The inhibition of `CC(C)=CCc1c(O)cc(O)c2c1O[C@H](c1ccc(O)cc1)CC2=O` is reported as < 10% (human CYP2B6; 1 µM, pH 7.4).
The transport of `CN1C[C@@H]2C[C@H]1CN2c1cc2c(cc1F)c(=O)c(C(=O)O)cn2C1CC1` is reported as 43.8 ± 10% (Broad substrate specificity ATP-binding cassette transporter ABCG2; substrate; MDCK-II transduced with mouse Abcg2; 10 µM, 4 h, basolateral to apical).
Under “Papp B to A”, `CC1(C)CCC2(CC1)N[C@@H](C(=O)N[C@@H]1CC[C@@H](C(N)=O)OC1)[C@H](c1ccnc(Cl)c1F)[C@]21C(=O)Nc2cc(Cl)ccc21` is recorded as 9.95 ×10⁻⁶ cm/s (ABCB1; Caco-2 monolayers; 30 µM, 120 min, no inhibitor).
For `CCc1cc(/C(C)=N/OCc2ccc(C3CCCCC3)c(C(F)(F)F)c2)ccc1CN1CC(C(=O)O)C1`, the maximal inhibition was 80% (SLCO1B1; inhibitor; HEK293 transfected with SLCO1B1; 16.8 µM, 3 min, together with: estradiol-17β-glucuronide 1 µM).
`CCCCC1=NC2(CCCC2)C(=O)N1Cc1ccc(-c2ccccc2S(=O)(=O)Nc2noc(C)c2C)c(COCC)c1` has a Hill coefficient of 2.88 (CYP3A4; enzyme induction, inducer; human).
`O=C(O)COc1cccc(-c2nc(Nc3ccc4[nH]ncc4c3)c3ccccc3n2)c1` has an IC50 of 47.8 µM (UGT2B15 (Homo sapiens, UniProt P54855); enzyme activity, inhibitor; recombinant microsomes; together with: diclofenac).
`Cc1cc(O[C@@H]2CCOC2)cc(C(=O)Nc2nc(C)cs2)n1` has an IC50 of > 30 µM (CYP panel except CYP1A2 (human); inhibitor).
For `CCc1oc2ccccc2c1C(=O)c1cc(I)c(OC)c(I)c1`, the Ki was 9.3 µM (CYP2E1; p-nitrophenol hydroxylation, inhibitor; with additive 100 µM).
`Cn1ncnc1[C@H]1c2n[nH]c(=O)c3cc(F)cc(c23)N[C@@H]1c1ccc(F)cc1` has an intracellular accumulation of 83.1 ± 4.4% (Broad substrate specificity ATP-binding cassette transporter ABCG2; MDCK-II Bcrp1-overexpressing; 1 µM, 1 h, 37 °C; relative to: vector control cells).
The intrinsic clearance of `N#C[C@H](C[C@@H]1CCCNC1=O)NC(=O)[C@H](CC1CC1)NC(=O)c1cc2cccc(Cl)c2[nH]1` is reported as < 0.054 µL/min/pmol (CYP2E1; NADPH metabolic stability; 2 µM, pH 7.4, 100 pmol/mL enzyme).
With `C[C@H]1CN(C2COC2)CCN1c1ccc(Nc2cc(-c3ccnc(N4CCn5c(cc6c5CC(C)(C)C6)C4=O)c3CO)cn(C)c2=O)nc1` the remaining compound was 97.2 ± 10.5% (human CYP3A4/5; human liver microsomes; 1 µM, 60 min, pH 7.4, together with: ketoconazole 1 µM, NADPH; relative to: 0 min).
`CC[C@H]1[C@@H](O)[C@@H]2[C@H](CC[C@]3(C)[C@@H]([C@H](C)CCNC(=O)NS(=O)(=O)c4ccc(C(C)(C)C)cc4)CC[C@@H]23)[C@@]2(C)CC[C@@H](O)C[C@@H]12` gave an AUC(0-t) mean of 373 ng·h/mL (ABCB1; substrate; human, plasma; dose not given, alone).
Under “AUC(0-inf) (arithmetic mean)”, `Cc1cc(Nc2ncnc3ccc(NC4=NC(C)(CO)CO4)cc23)ccc1Oc1ccn2ncnc2c1` (centres unmarked) is recorded as 833 ng·h/mL (Cytochrome P450 3A4 (CYP3A4, Homo sapiens, UniProt P08684); human, plasma; tucatinib, day 6, together with: itraconazole).
The viability of `Oc1ccc(/C=C/c2cc(O)cc(O)c2)cc1` is reported as 108% (HBL-1; 0.5 µM, 120 h).
For `Cn1cncc1[C@@](N)(c1ccc(Cl)cc1)c1ccc2c(c1)c(-c1cccc(Cl)c1)cc(=O)n2C`, the EC50 was 14.9 µM (human CYP2B6; mRNA induction).
For `COC(=O)c1ccc(N2CCN(C)CC2)c(NC(=O)c2cccc(OC)c2)c1`, the viability was 123% (HBL-1; 0.5 µM, 120 h).
`Cc1ccccc1-c1ccc([C@@H]2[C@H](CO)N3CCCCN(C(=O)NC4CCCC4)C[C@@H]23)cc1` gave an EC50 of 1.55 µM (IDE; enzyme activity, inhibitor, fluorogenic kinetic; together with: Mca-RPPGFSAFK(Dnp)-OH substrate).
For `O=C(c1ccc(C(=O)N2CCC(N3CCCC3)CC2)c(Nc2ccccc2)c1)N1CCC(N2CCCC2)CC1`, “FRAP recovery half-time” read 3.3 s (Lethal(3)malignant brain tumor-like protein 3, MBT domains (Homo sapiens, UniProt Q96JM7); FRAP; human cells; 0.1 µM).

Excerpt of the above:
The intrinsic clearance of `N#C[C@H](C[C@@H]1CCCNC1=O)NC(=O)[C@H](CC1CC1)NC(=O)c1cc2cccc(Cl)c2[nH]1` is reported as < 0.054 µL/min/pmol (CYP2E1; NADPH metabolic stability; 2 µM, pH 7.4, 100 pmol/mL enzyme).
With `C[C@H]1CN(C2COC2)CCN1c1ccc(Nc2cc(-c3ccnc(N4CCn5c(cc6c5CC(C)(C)C6)C4=O)c3CO)cn(C)c2=O)nc1` the remaining compound was 97.2 ± 10.5% (human CYP3A4/5; human liver microsomes; 1 µM, 60 min, pH 7.4, together with: ketoconazole 1 µM, NADPH; relative to: 0 min).
`CCCCC1=NC2(CCCC2)C(=O)N1Cc1ccc(-c2ccccc2S(=O)(=O)Nc2noc(C)c2C)c(COCC)c1` has a Hill coefficient of 2.88 (CYP3A4; enzyme induction, inducer; human).
`Cc1ccccc1-c1ccc([C@@H]2[C@H](CO)N3CCCCN(C(=O)NC4CCCC4)C[C@@H]23)cc1` gave an EC50 of 1.55 µM (IDE; enzyme activity, inhibitor, fluorogenic kinetic; together with: Mca-RPPGFSAFK(Dnp)-OH substrate).
